{"data": "Measured values collected from several papers", "note": "Every numbered part comes from another study and shows a few of its results, in no order. Changes are numbered by the printed parent chain."}
{"data": "Block 1", "target": "RING finger protein unkempt homolog, zinc fingers 1-6, GST-SBP tag (UNK, Homo sapiens, UniProt Q9C0B0, residues 30-357)", "method": "RNA Bind-n-Seq", "molecule type": "RNA", "sample": "in vitro", "concentration": "not given", "setting": "RNA with constant flanks, human and mouse sites, ends assumed", "relative to": "input RNA pool", "direction": "higher = stronger binding", "chain of UniProt Q9C0B0 (30-357, looked up)": "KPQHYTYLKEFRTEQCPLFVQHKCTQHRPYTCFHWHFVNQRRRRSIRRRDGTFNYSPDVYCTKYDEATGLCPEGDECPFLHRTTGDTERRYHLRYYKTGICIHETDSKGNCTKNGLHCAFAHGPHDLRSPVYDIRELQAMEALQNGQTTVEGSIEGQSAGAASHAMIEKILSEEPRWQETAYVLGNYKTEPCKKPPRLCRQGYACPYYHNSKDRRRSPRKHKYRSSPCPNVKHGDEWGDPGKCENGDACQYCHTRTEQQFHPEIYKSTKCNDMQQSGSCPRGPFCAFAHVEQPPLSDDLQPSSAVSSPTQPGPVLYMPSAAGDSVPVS"}
{"Sequence": "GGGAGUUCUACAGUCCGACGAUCGAAGCUGACAGUGAUAAUUAUGAAGUUUUAUUCAACCUGGAAGAACUUAAAUUGGAUCAGCCUUUCAUUGAUUGCAUCAGAGUUGCUCCUGAUGAGAAAUACGUGGCUGCCAAGAUAAGGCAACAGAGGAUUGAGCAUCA", "bound/input enrichment [ratio]": 0.33}
{"Sequence": "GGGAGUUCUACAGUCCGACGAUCGACACAUCCUUUAACCGGAAAGACCAUCUUAGAACUCAUCAGAGAUUUCACACAGGAGAGAGAAUUUACAAAUGUAGUGAAUGUGAUGAAUCCUUUACCCAGAAAAUUAAUCUAAGAAUUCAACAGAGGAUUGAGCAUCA", "bound/input enrichment [ratio]": 0.246}
{"Sequence": "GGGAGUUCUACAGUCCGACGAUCUAUAGAGCCACCAUGAUUCUUACAGUUGGUGGUAAGGCCUUUGGAAUGUUUGAAGGAACAGCAUAUGCCAUAUAUGAGCUGGCUGUGGCUUCAUUUCCCAAGAAGCAGGAGUGACUUCAGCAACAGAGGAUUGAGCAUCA", "bound/input enrichment [ratio]": 0.187}
{"Sequence": "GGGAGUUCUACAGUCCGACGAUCGUUACCUGUGUUGCUGCCUCUCCCCACAAAGACUCUGUGUUUCUUUCAUGUAGUGAGGACAGUAGAAUUUUGCUCUGGGAUACCCGCUGUCCCAAGCCGGCAUCACAGAUGGCCUGCAAUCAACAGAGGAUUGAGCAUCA", "bound/input enrichment [ratio]": 0.628}
{"Sequence": "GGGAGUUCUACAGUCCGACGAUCAAUUCUAUUGAAGUAUUUAUUUUGUGAAGAUGGCAAUUUUGCAUUUGUUUAAAUUUUUUUCAUUCUUUAAUUUUGUUAUCAGUGCCAGCCCAAUAUACCUGCUCUACCAUUAUUUGCGGUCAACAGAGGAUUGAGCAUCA", "bound/input enrichment [ratio]": 0.91}
{"Sequence": "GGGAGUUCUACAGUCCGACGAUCUAUUCAGCCUGGGCAUUGCUCGCUGGGAGAGCCAGACCACCAGGCUCUUCCUCACCCUCCUUAGGAAGUGGUCUUCAGCACUGUUCUGACCCCAGGUGUUACCAGCUGGUUCAUCACAGGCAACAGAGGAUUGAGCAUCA", "bound/input enrichment [ratio]": 0.171}
{"Sequence": "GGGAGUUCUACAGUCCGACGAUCUGGCCUGUGGCUGUGUGUUCAAACACCCCUCCCACAGGACUCACUUUGUCCCAACAAUUCAGAUUGCCUAGAAAUACCUUUCUCUUACCUGUUUGUUAUUUAUCAAUUUUUCCCAGUAUUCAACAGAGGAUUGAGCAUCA", "bound/input enrichment [ratio]": 1.04}
{"data": "Block 2", "target": "ABI1, truncated, D143A, DHFR fusion (Arabidopsis thaliana, UniProt P49597)", "method": "DHFR PCA, dose-response", "sample": "yeast", "setting": "Hill fit, mean, not affinity", "with": "(+)-ABA, dose series", "direction": "lower = more sensitive", "starting sequence": "PYL1, truncated, DHFR fusion (Arabidopsis thaliana, UniProt Q8VZS8); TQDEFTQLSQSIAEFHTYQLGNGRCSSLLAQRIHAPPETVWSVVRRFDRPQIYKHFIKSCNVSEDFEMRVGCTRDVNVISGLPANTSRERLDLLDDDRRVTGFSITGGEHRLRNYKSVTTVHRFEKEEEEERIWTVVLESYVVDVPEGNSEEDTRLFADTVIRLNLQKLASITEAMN"}
{"Variant": "D97F", "ABA EC50": "6.44 µM"}
{"Variant": "L8R", "ABA EC50": "64.3 µM"}
{"Variant": "P36K", "ABA EC50": "3.12 µM"}
{"Variant": "V78S", "ABA EC50": "140 µM"}
{"Variant": "D92Q", "ABA EC50": "134 µM"}
{"Variant": "D97Q", "ABA EC50": "1.63 µM"}
{"Variant": "S63L", "ABA EC50": "6.23 µM"}
{"Variant": "D96T", "ABA EC50": "236 µM"}
{"Variant": "Q7T", "ABA EC50": "2.15 µM"}
{"Variant": "Q19K", "ABA EC50": "2.6 µM"}
{"Variant": "E152G", "ABA EC50": "4.94 µM"}
{"Variant": "F5D", "ABA EC50": "6.09 µM"}
{"Variant": "A35R", "ABA EC50": "178 µM"}
{"Variant": "I105L", "ABA EC50": "239 µM"}
{"Variant": "R46M", "ABA EC50": "7.34 µM"}
{"Variant": "E67K", "ABA EC50": "2.61 µM"}
{"Variant": "V142R", "ABA EC50": "9.95 µM"}
{"Variant": "E129I", "ABA EC50": "3.32 µM"}
{"Variant": "R69W", "ABA EC50": "53.4 µM"}
{"data": "Block 3", "target": "Interferon regulatory factor 7, full length, phosphomimetic (IRF7, Homo sapiens, UniProt Q92985, residues 1-503, S471D/S472D/S475D/S476D/S477D/S483D/S484D/S487D)", "method": "protein-binding microarray", "molecule type": "double-stranded DNA, one strand shown", "sample": "in vitro", "concentration": "2200 nM top", "setting": "60-bp whole probe", "with": "salmon DNA 0.4 mg/ml", "relative to": "random background probes", "direction": "higher = stronger binding", "constant ends, left off below": "GCCTAGCAC … GTCTTGATTCGCTTGACGCTGCTG", "Residues (chain)": "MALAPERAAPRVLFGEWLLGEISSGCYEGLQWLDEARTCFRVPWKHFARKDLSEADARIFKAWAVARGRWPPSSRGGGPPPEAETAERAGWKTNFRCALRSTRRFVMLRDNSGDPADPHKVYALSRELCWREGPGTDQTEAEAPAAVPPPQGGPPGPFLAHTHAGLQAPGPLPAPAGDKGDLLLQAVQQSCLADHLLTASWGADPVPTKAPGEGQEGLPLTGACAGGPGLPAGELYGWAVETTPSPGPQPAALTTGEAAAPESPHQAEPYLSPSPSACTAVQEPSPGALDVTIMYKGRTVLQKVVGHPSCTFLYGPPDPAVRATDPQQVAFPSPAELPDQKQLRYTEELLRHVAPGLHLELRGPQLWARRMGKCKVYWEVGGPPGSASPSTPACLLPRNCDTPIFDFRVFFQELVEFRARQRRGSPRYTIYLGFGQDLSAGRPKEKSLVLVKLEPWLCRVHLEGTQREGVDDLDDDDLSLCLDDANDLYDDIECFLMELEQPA"}
{"Sequence": "GACGATTTCGGGACTGGCGACGTGCTA", "fitted relative affinity [z-score]": 1.19}
{"Sequence": "GACGGTCTCCTACTGCTAACGTGCTAG", "fitted relative affinity [z-score]": 0.668}
{"Sequence": "GACAGTTTCGGGACTGGGGACGTGCTA", "fitted relative affinity [z-score]": 4.48}
{"Sequence": "TTTGTTTCCATTTTCTGAATGTGCTAG", "fitted relative affinity [z-score]": 6.36}
{"Sequence": "TCAGCATTCGAATTCAGACTGTGCTAG", "fitted relative affinity [z-score]": 1.18}
{"Sequence": "TCATTTACCACATTCTCACTGTGCTAG", "fitted relative affinity [z-score]": 2.39}
{"Sequence": "GACGGTTTCGGGTTTCGGGTCGTGCTA", "fitted relative affinity [z-score]": 11.4}
{"Sequence": "TCAGGTATCGGTATCGGTTAGTGCTAG", "fitted relative affinity [z-score]": 1.66}
{"Sequence": "GACGGTTTGCTTTCCCTGACGTGCTAG", "fitted relative affinity [z-score]": 2.31}
{"Sequence": "TTAAGACTGGACTATCGGTTAGTGCTA", "fitted relative affinity [z-score]": -0.347}
{"Sequence": "TCATGTATTTGTCCCTAACTGTGCTAG", "fitted relative affinity [z-score]": 1.9}
{"Sequence": "AGTGTTACCCCTCATCAACCAGTGCTA", "fitted relative affinity [z-score]": 1.08}
{"Sequence": "GAACTTTGGCCTCTAGGTTTGTGCTAG", "fitted relative affinity [z-score]": 0.305}
{"data": "Block 4", "target": "RNA binding protein fox-1 homolog 2, RRM domain, GST-SBP tag (RBFOX2, Homo sapiens, UniProt O43251-10, residues 100-194)", "method": "RNA Bind-n-Seq", "molecule type": "RNA", "sample": "in vitro", "concentration": "365 nM", "setting": "natural RNA segment, single round, ends assumed", "relative to": "no-protein control", "direction": "higher = stronger binding", "Construct (chain)": "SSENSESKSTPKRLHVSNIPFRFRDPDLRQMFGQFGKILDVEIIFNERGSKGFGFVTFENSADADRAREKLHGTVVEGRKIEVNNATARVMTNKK"}
{"Sequence": "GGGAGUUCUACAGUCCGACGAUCAUGGUAGUAGAGGGAUGUGGGUGCCGCUGAGAUCAGGCAGUCCUUGAGGAUAGACAGAUAUACACACCACACACACACACCACAUACACCACACACACACGUUCCCAUCCUGGAAUUCUCGGGUGCCAA", "RBNS enrichment (R)": 0.293}
{"Sequence": "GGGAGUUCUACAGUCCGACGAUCAGUGACAGAGAUGCCUCAGCUCUAGGCUCCUGCCCUUGCUGCUCCCACCUUCCAAGCCAGUUGCAGAGCCCCUGCUAAGGACCGAGCCUGCUCACUCAUCUCAGCUCCAGUGGAAUUCUCGGGUGCCAA", "RBNS enrichment (R)": 0.665}
{"Sequence": "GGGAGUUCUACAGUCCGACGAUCUGCAUUUUUCUGUCAGAAUCACAUAUGAUGUGUGUUCUGUAGAGGUUAUUUCUGCAUGGAAACUCAACUUCUUGGAUUAGCCGUCCCAGUGAAAAUCCUCAUUGUUGGAGUGGAAUUCUCGGGUGCCAA", "RBNS enrichment (R)": 0.769}
{"Sequence": "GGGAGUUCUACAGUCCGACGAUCAGUAGUGAAGGGACUGUGUUGCUUGUGAAGCGGUGUAGUAGCAUUUUUGCAGAUUCUUGGCUGGGUUUAGUGUACUGAUCUAGAAAAGCUGUUUUUCUGCUCCUUUGUGGUGGAAUUCUCGGGUGCCAA", "RBNS enrichment (R)": 0.827}
{"Sequence": "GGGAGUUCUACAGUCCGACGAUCAAGUGCUUUUUUGCAGUCUCCUUUGUUGCUGAUUUCAUGUGUCCGAUUCCUUCUGUAUGUCAUUCUUGUUAACAAGACCAUAACCUCCCCGACCUGACACCUCAUAUGAUUGGAAUUCUCGGGUGCCAA", "RBNS enrichment (R)": 0.447}
{"Sequence": "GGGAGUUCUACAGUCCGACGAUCUCCUGUGUGCUGGUUAGUUAUGCAAGAAGAAAGCCCCGUAGAAACAGCCUCCAGCUGCACUGGGAGACGUAGGGAGGGAAGCAGGGUCCACAGCCAUUCCCUCAUGAGAGUGGAAUUCUCGGGUGCCAA", "RBNS enrichment (R)": 2.56}
{"Sequence": "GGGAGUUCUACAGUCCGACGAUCCUGGUCUGUUCAAUCCUGCCCUCUUUGGUGCUAGAUCCAGUUGUGCCUCAGAGCAGAAGAAACAAACCUGCUGUCUUGUUGGCCCAGUGUUUCAGUUUUGAAGUGUGUACUGGAAUUCUCGGGUGCCAA", "RBNS enrichment (R)": 0.699}
{"Sequence": "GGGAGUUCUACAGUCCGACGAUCUGGGAUGUGAAGAAAAAAAAUGAGAACCCAUUGAAAGGAAGAAAGGAAUUUGUUGUCUGCUUCUAAGCUAGAGUGGUUGUAAAGGUUCUGCUCUGCCAGUGUUCAGUAUCUGGAAUUCUCGGGUGCCAA", "RBNS enrichment (R)": 0.862}
{"Sequence": "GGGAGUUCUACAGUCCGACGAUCAAUGAUGUAUGCCCACCUUUCAUUUCUGCUAUUCAAGUUUUGACUAUGUAUCUAGCUUGUGCAAAACCCUUAAGUAUGAGGGAUAGGACCCCCACCCAUGGGUUUACAUAUGGAAUUCUCGGGUGCCAA", "RBNS enrichment (R)": 0.763}
{"Sequence": "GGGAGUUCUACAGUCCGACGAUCUUUAUAAAUCAUUGUUAAUUCAGAGAUUUGUACGUGAGAAAACAACAACAAAAUUAGAGACUAUCUAGUUUCUGUAGGUUAUUUUUCCCAAUAAUGUUUCCAGAUCGAAUUGGAAUUCUCGGGUGCCAA", "RBNS enrichment (R)": 0.37}
{"Sequence": "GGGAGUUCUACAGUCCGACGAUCACAGCUGACGGUUUCUCCCCGGACACUCGCCUACUAAGUACCCUUGGGGUGGUGCUGGGUCAUUACUUCUGAGCCCCAGCCCCAAUCCAGAGAAGCGCUGUUGCCCGCCCUGGAAUUCUCGGGUGCCAA", "RBNS enrichment (R)": 0.308}
{"Sequence": "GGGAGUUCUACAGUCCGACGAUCUUAAAUUGGCUUUGGCCAGUAGCUAAAGUGCAAGACUGAAUUAAUGAGAAGAUAUAUUAAAUGUAGUCAUAGGGGACUGAGGAGCAAGGGUGGCCUUGAAGAGGCCAAAGUGGAAUUCUCGGGUGCCAA", "RBNS enrichment (R)": 0.613}
{"note": "For quick reference, copied from above (block 3):"}
{"Sequence": "TCAGCATTCGAATTCAGACTGTGCTAG", "fitted relative affinity [z-score]": 1.18}
{"Sequence": "TCATTTACCACATTCTCACTGTGCTAG", "fitted relative affinity [z-score]": 2.39}
{"Sequence": "GACGGTTTCGGGTTTCGGGTCGTGCTA", "fitted relative affinity [z-score]": 11.4}
{"Sequence": "TCAGGTATCGGTATCGGTTAGTGCTAG", "fitted relative affinity [z-score]": 1.66}
{"Sequence": "GACGGTTTGCTTTCCCTGACGTGCTAG", "fitted relative affinity [z-score]": 2.31}
{"Sequence": "TTAAGACTGGACTATCGGTTAGTGCTA", "fitted relative affinity [z-score]": -0.347}
{"Sequence": "TCATGTATTTGTCCCTAACTGTGCTAG", "fitted relative affinity [z-score]": 1.9}
{"Sequence": "AGTGTTACCCCTCATCAACCAGTGCTA", "fitted relative affinity [z-score]": 1.08}
